Results of several laboratories.
Lines come from different studies, so protocols differ. ± marks the error that the study gave. In brackets after ≈: the same amount, converted by molar mass.
CYP2B6: Cytochrome P450 2B6 (CYP2B6, Homo sapiens, UniProt P20813)
Chain of UniProt P20813 (whole entry, looked up): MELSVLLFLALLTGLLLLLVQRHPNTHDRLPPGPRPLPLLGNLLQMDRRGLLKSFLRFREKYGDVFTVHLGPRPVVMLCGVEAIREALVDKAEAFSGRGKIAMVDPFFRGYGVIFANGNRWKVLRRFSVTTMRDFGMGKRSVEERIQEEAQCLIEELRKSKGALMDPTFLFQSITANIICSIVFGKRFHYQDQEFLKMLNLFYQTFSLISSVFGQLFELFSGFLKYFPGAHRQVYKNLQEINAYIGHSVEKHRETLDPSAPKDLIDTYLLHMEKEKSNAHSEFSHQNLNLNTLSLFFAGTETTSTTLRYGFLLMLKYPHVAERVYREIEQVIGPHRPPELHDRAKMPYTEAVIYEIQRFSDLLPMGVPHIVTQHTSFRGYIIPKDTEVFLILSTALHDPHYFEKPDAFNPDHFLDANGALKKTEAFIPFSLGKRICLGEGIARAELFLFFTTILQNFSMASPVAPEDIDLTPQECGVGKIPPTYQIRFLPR
AHR: Aryl hydrocarbon receptor (AHR, Homo sapiens, UniProt P35869)
Chain of UniProt P35869 (whole entry, looked up): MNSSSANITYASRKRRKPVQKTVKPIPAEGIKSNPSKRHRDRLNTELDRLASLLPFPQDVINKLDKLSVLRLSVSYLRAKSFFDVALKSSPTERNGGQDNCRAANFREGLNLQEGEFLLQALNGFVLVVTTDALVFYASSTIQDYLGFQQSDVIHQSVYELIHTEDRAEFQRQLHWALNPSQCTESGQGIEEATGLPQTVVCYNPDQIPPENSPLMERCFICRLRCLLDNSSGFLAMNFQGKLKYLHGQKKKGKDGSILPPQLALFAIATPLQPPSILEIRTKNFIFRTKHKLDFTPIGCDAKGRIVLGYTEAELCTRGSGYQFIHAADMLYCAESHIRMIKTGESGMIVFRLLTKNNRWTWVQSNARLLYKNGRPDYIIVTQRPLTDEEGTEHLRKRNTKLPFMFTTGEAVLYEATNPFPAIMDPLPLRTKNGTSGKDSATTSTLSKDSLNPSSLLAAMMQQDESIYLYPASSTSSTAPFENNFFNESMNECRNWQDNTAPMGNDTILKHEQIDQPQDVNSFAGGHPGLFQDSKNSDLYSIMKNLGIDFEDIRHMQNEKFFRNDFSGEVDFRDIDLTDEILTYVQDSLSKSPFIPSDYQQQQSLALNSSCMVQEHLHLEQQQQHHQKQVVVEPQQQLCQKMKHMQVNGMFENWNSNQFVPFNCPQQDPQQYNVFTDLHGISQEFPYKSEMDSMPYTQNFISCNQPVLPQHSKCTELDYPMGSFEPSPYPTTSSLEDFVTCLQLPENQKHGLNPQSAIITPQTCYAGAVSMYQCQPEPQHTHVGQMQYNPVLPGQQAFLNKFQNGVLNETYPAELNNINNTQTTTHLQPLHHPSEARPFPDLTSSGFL
CYP2E1: Cytochrome P450 2E1 (CYP2E1, Homo sapiens, UniProt P05181)
Chain of UniProt P05181 (whole entry, looked up): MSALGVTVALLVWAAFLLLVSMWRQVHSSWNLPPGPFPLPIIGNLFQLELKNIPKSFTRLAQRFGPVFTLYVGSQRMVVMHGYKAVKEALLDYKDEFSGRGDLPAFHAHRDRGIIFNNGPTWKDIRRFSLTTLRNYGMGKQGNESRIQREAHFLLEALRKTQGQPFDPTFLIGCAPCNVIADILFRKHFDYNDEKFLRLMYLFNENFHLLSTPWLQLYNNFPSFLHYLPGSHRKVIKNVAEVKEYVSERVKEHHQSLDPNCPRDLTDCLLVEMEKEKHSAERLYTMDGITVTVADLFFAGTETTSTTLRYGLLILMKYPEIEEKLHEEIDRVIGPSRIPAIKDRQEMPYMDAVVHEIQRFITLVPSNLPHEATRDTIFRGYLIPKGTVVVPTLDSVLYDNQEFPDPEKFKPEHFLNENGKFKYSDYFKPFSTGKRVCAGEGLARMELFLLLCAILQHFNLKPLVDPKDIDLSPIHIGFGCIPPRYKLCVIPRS
SLC22A1: Solute carrier family 22 member 1 (SLC22A1, Homo sapiens, UniProt O15245)
Chain of UniProt O15245 (whole entry, looked up): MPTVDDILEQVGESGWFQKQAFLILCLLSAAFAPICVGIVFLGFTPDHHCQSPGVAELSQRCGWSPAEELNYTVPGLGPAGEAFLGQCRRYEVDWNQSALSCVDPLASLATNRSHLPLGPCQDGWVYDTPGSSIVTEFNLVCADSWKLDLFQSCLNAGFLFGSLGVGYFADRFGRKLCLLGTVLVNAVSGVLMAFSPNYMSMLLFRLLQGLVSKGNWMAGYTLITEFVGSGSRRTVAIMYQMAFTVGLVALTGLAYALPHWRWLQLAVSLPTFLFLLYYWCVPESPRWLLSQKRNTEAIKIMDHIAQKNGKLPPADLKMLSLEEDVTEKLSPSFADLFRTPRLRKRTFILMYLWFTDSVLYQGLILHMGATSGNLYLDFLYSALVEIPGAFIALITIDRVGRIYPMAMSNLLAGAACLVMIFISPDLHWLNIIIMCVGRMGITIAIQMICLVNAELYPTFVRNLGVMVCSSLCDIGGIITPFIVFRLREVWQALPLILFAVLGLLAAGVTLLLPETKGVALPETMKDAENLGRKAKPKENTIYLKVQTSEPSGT
Chain of UniProt Q8TDU6 (whole entry, looked up): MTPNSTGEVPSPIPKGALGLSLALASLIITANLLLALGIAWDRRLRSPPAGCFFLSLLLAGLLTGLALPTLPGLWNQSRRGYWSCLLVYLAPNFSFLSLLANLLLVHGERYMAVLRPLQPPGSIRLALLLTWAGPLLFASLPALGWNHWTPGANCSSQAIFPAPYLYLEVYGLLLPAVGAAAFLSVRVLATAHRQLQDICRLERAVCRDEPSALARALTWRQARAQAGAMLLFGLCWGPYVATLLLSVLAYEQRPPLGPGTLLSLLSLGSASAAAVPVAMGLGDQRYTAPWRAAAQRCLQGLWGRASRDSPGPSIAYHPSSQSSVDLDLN
Chain of UniProt Q12933 (whole entry, looked up): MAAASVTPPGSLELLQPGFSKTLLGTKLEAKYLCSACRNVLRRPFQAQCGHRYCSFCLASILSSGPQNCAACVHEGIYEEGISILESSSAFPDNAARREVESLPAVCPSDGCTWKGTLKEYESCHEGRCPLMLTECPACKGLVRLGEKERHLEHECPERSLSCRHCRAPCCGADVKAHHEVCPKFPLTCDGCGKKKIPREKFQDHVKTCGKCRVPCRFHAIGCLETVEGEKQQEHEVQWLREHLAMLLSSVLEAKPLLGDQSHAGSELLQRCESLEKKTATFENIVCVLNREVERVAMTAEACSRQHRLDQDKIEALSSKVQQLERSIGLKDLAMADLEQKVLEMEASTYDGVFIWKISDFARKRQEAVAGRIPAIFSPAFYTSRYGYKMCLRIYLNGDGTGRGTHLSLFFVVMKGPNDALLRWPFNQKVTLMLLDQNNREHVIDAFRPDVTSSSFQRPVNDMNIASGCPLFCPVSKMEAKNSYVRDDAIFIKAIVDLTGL
Chain of UniProt P00784 (whole entry, looked up): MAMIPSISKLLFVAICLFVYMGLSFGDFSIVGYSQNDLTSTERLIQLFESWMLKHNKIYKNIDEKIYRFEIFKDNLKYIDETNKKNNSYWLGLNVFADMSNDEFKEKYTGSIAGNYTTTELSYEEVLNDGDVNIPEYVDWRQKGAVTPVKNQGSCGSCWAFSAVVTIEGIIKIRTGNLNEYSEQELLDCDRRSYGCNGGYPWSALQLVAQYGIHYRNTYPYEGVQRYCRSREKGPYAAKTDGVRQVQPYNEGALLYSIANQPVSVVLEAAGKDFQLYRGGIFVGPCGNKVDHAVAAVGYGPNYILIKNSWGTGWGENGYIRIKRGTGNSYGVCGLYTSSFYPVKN
Chain of UniProt P42338 (whole entry, looked up): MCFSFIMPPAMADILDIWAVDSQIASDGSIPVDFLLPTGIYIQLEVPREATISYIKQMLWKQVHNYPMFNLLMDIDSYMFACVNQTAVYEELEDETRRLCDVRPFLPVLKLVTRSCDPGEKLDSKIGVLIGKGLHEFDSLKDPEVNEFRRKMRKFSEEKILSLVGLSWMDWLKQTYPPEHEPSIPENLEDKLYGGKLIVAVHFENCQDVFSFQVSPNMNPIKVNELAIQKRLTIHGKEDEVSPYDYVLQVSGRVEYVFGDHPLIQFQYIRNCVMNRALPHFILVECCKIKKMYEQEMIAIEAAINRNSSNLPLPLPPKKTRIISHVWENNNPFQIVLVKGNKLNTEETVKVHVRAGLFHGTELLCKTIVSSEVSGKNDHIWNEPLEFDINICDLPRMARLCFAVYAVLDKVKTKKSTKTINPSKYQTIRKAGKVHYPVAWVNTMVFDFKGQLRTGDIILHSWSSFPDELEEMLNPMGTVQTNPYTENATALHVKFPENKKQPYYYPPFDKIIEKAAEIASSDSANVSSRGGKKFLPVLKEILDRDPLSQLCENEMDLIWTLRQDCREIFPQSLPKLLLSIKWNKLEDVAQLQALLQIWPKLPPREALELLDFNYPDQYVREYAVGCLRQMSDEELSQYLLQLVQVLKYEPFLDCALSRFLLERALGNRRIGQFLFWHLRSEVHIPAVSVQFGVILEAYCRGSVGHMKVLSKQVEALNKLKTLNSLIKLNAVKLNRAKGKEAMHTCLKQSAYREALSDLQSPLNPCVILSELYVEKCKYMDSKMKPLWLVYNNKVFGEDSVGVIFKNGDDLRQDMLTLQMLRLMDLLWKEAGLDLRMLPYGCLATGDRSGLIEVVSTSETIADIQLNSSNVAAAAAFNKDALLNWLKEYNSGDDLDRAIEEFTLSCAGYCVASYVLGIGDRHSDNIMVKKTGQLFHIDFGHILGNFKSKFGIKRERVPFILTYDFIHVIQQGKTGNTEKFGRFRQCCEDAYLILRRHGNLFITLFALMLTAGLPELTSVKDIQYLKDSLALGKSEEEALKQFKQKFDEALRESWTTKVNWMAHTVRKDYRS

| Compound | target or system | assay | test system | conditions | how to read | endpoint | result |
| --- | --- | --- | --- | --- | --- | --- | --- |
| COc1cccc(N(C)C(=S)Oc2ccc3c(c2)CCCC3)n1 | CYP2B6 | enzyme activity |  | 20 min, 2% DMSO |  | maximal inhibition | ~65% |
| CC(C)=CC1C(C(=O)OC(C#N)c2cccc(Oc3ccccc3)c2)C1(C)C (centres unmarked) | human microsomal CES1 | IVIVE from expressed enzymes | human, 6 months old |  | reference: total hepatic CLint in vivo | relative enzyme contribution | 53.7% |
| CC(=O)N1CCC(C(=O)N2CCN3C(=O)c4cc(-c5ccccc5)ccc4NC(=O)C3C2)CC1 (centres unmarked) | Salmonella typhimurium |  | TA1537 | 1.58 µg/plate |  | revertants per plate | 12.5 |
| C[C@H]1CN(c2n[nH]c3nc(N[C@H]4CC[C@H](NS(=O)(=O)CCC(F)(F)F)CC4)ncc23)CCO1 | TNF receptor-associated factor 2 (Homo sapiens, UniProt Q12933) | Kinobeads competition, refers to: TRAF2 |  | 0.032 µM, unit not given | reference: vehicle | remaining binding | 1.02 |
| COc1cc(Nc2ncc(F)c(Nc3ccc4c(n3)NC(=O)C(C)(C)O4)n2)cc(OC)c1OC | 5-hydroxytryptamine receptor 6 (HTR6, Homo sapiens, UniProt P50406) |  |  |  |  | IC50 | > 10 µM |
| CCCC[C@H]1C(=O)N(C)[C@@H](CCCC)C(=O)N[C@@H](CCCCNC(=O)CN2CCN(CC(=O)O)CCN(CC(=O)O)CC2)C(=O)N[C@H](C(=O)NCC(N)=O)CSCC(=O)N[C@@H](Cc2ccc(O)cc2)C(=O)N(C)[C@@H](C)C(=O)N[C@@H](CC(N)=O)C(=O)N2CCC[C@H]2C(=O)N[C@@H](Cc2c[nH]cn2)C(=O)N[C@@H](CCC(=O)O)C(=O)N2C[C@H](O)C[C@H]2C(=O)N[C@@H](Cc2c[nH]c3ccccc23)C(=O)N[C@@H](CO)C(=O)N[C@@H](Cc2cn(CC(=O)O)c3ccccc23)C(=O)N1C [gallium-68 labelled] | Programmed cell death 1 ligand 1 (CD274, Homo sapiens, UniProt Q9NZQ7) | PET | humanised NOG-EXL mice, U-87 MG xenograft | day D5 after antibody, together with: anti-PD-L1 antibody 10 mg/kg |  | tumour uptake | 1.17 %ID/g |
| Clc1cccc(-c2cccc(Cl)c2)c1 | AHR | reporter gene, antagonist | AZ-AHR cells | 40 µM, together with: TCDD 4.5 nM | reference: TCDD 4.5 nM | maximum activity | 50% |
| C=CC1CO1 (centres unmarked) | CYP2E1 | enzyme activity, inhibitor |  | pH 7.4, 37 °C, together with: 4-nitrophenol 50 µM |  | IC50 | 110 µM |
| CCOC(=O)C1=C[C@@H](OC(CC)CC)[C@H](NC(C)=O)[C@@H](N)C1 | SLC22A1 | transport, inhibitor | transiently transfected cells | 100 µM, 10 (unit not given), together with: metformin |  | inhibition | 26.3% |
| COc1ccc2c(c1OC)C(=O)c1c(cc(C)c(O)c1OC)C2=O | HK-2 co-cultured with HepaRG | MTT |  | 133.33 µM, 24 h | reference: untreated control | cell viability | 86.1 ± 18.2% |
| CC(C)CC(=O)OC[C@H]1O[C@@](C#N)(c2ccc3c(N)ncnn23)[C@H](O)[C@@H]1O | CYP2E1 | metabolic stability | recombinant enzyme | 1 µM |  | intrinsic clearance | < 0.0353 µL/min/pmol |
| COc1cccc(C(=O)c2c[nH]c3ccccc23)c1 | AHR | reporter gene, agonist | HepG2 | XRE-driven luciferase | reference: ITE 10 µM | Emax | 46% |
| COc1ccc2cc1Oc1ccc(cc1)C[C@H]1c3cc(c(OC)cc3CCN1C)Oc1c(OC)c(OC)cc3c1[C@H](C2)N(C)CC3 | Solute carrier organic anion transporter family member 2B1 (SLCO2B1, Homo sapiens, UniProt O94956) | transport, inhibitor |  | 10 µM, together with: ES |  | inhibition | -22.9% |
| CC(C)[C@H](C(=O)O[C@H](C#N)c1cccc(Oc2ccccc2)c1)c1ccc(Cl)cc1 | human microsomal CES1 | IVIVE from expressed enzymes | human, liver, in vivo scaled | age-specific |  | enzyme contribution to CLint | 44.4% |
| CCCCc1nc(Cl)c(CO)n1Cc1ccc(-c2ccccc2-c2nn[nH]n2)cc1 | SLC22A1 | transport, inhibitor | transiently transfected cells | 100 µM, 10 (unit not given), together with: metformin |  | inhibition | 0.0693% |
| O=c1ccc2ccccc2o1 | HepG2 | refers to: IL-8 |  | 24 h |  | point of departure | 801 µM |

| Compound | target or system | assay | test system | conditions | how to read | endpoint | result |
| --- | --- | --- | --- | --- | --- | --- | --- |
| CC[C@H](C)[C@H](NC(=O)[C@H](CCCCN)NC(=O)[C@@H](NC(=O)[C@H](Cc1ccc(O)cc1)NC(=O)[C@H](CCCCN)NC(=O)[C@H](CCCCN)NC(=O)CNC(=O)[C@H](CCCCN)NC(=O)[C@@H](NC(=O)[C@H](C)NC(=O)[C@H](CC(C)C)NC(=O)[C@H](Cc1c[nH]c2ccccc12)NC(=O)CNC(=O)[C@@H](NC(=O)[C@H](Cc1ccccc1)NC(=O)[C@H](CCCCN)NC(=O)[C@H](CC(C)C)NC(=O)[C@H](Cc1ccccc1)NC(=O)[C@H](C)NC(=O)CNC(=O)[C@@H](N)CCSC)C(C)C)[C@@H](C)O)C(C)C)C(=O)N[C@@H](C)C(=O)N[C@@H](Cc1c[nH]c2ccccc12)C(=O)N[C@@H](CC(=O)O)C(=O)N[C@@H](Cc1c[nH]cn1)C(=O)N[C@@H](CCCCN)C(=O)NCC(=O)N[C@H](C(=O)N[C@H](C(=O)N[C@@H](CCSC)C(=O)N[C@@H](CCCCN)C(=O)N[C@@H](Cc1c[nH]c2ccccc12)C(=O)N[C@@H](CC(C)C)C(=O)N[C@@H](CC(N)=O)C(=O)N[C@@H](C)C(=O)NCC(=O)N[C@@H](CCC(N)=O)C(=O)N[C@H](C(=O)N[C@@H](Cc1ccccc1)C(=O)N[C@H](C(=O)N[C@@H](Cc1c[nH]c2ccccc12)C(=O)N[C@H](C(=O)N[C@@H](Cc1ccc(O)cc1)C(=O)N[C@@H](CCC(=O)O)C(=O)N[C@@H](CCC(N)=O)C(=O)N[C@H](C(=O)N[C@@H](CCCCN)C(=O)N[C@@H](CCCCN)C(=O)N[C@@H](CC(C)C)C(=O)N[C@@H](Cc1c[nH]c2ccccc12)C(=O)N[C@H](C(=O)O)[C@@H](C)O)[C@@H](C)CC)C(C)C)[C@@H](C)O)[C@@H](C)O)[C@@H](C)CC)[C@@H](C)O | Papain (Carica papaya, UniProt P00784) |  | Pediococcus damnosus, CECT 4797 | 3 h, 37 °C, together with: papain 1 mg/mL |  | MIC after protease treatment | 781 µg/mL (≈ 129 µM) |
| CC1(C)[C@H](C(=O)OCc2cccc(Oc3ccccc3)c2)[C@@H]1C=C(Cl)Cl | human microsomal CES1 | IVIVE from expressed enzymes | human, 5 years old, expressed human CES1 | 0.1 µM | reference: total hepatic CLint in vivo | relative enzyme contribution | 48.7% |
| NC(=O)c1ncn([C@@H]2O[C@H](CO)[C@@H](O)[C@H]2O)n1 | SLC22A1 | transport, inhibitor | transiently transfected cells | 100 µM, 10 (unit not given), together with: metformin |  | inhibition | -7.7% |
| CC[C@H](C)[C@@H]1NC(=O)[C@@H]2CCCN2C(=O)[C@H](CC(C)C)NC(=O)[C@H](CC(C)C)NC(=O)CNC(=O)[C@@H](NC(=O)[C@@H](NC(=O)[C@H](CC(=O)O)NC(=O)CNC(=O)[C@@H](NC(=O)[C@H](C)NC(=O)CNC(=O)[C@H](CCCCN)NC(=O)[C@H](CC(C)C)NC(=O)[C@H](CC(C)C)NC(=O)[C@H](CCCCN)NC(=O)CNC(=O)[C@@H](NC(=O)[C@@H](N)CC(C)C)C(C)C)C(C)C)C(C)C)CSSC[C@@H](C(=O)O)NC1=O |  | RNA-seq, refers to: Gch1 | mouse, traumatic brain injury model, frontal cortex and hippocampus | dose not given | reference: TBI alone | log2 fold change | -1.53 |
| CN(C)N=O | CYP2E1 | enzyme activity, inhibitor |  | pH 7.4, 37 °C, together with: 4-nitrophenol 50 µM |  | IC50 | 230 µM |
| CC1(C)C(/C=C(\Cl)C(F)(F)F)C1C(=O)OC(C#N)c1cccc(Oc2ccccc2)c1 (centres unmarked) | human CYP3A5 | IVIVE from expressed enzymes | human, liver, in vivo scaled | age-specific |  | enzyme contribution to CLint | 0.05% |
| Clc1ccc(-c2cc(Cl)ccc2Cl)cc1 | AHR | reporter gene, antagonist | AZ-AHR cells | 40 µM, together with: TCDD 4.5 nM | reference: TCDD 4.5 nM | maximum activity | 45% |
| CN1CCN(c2cc(-c3ccncc3)c(-c3ccc4ccccc4c3)nn2)CC1 | G-protein coupled bile acid receptor 1 (GPBAR1, Homo sapiens, UniProt Q8TDU6) | agonist, FLIPR |  | 12.5 µM |  | activation | 5.6% |
| CC1(C)C(C=C(Cl)Cl)C1C(=O)OC(C#N)c1ccc(F)c(Oc2ccccc2)c1 (centres unmarked) | human CYP3A5 | IVIVE from expressed enzymes | human, liver, in vivo scaled | 0.1 µM, age-specific |  | enzyme contribution to CLint | 0.2% |
| COc1ccc(N2C(=O)N(c3c(C)cccc3Cl)Cc3cnc(Nc4ccc(C5CCN(C)CC5)cc4OC)nc32)nc1 | Phosphatidylinositol 4,5-bisphosphate 3-kinase catalytic subunit beta isoform (PIK3CB, Homo sapiens, UniProt P42338) | kinase activity, inhibitor |  | 0.5 µM, kinase PI3K-BETA |  | inhibition | 8% |
| O=C1c2ccccc2C(=O)c2ccccc21 | HK-2 co-cultured with HepaRG | MTT |  | 66.67 µM, 48 h | reference: untreated control | viability | 53.4 ± 4.56% |
| CCN(CCO)CCCC(C)Nc1ccnc2cc(Cl)ccc12 (centres unmarked) | SLC22A1 | transport, inhibitor | transiently transfected cells | 100 µM, 10 (unit not given), together with: metformin |  | inhibition | 80.2% |
| COc1cc(N2CC[C@@]3(O)C(=O)c4cc(C)c(C)cc4N=C23)ccn1 | CYP2C | inhibitor |  |  |  | IC50 | < 50 µM |
| O=C(O)C(F)(F)C(F)(F)C(F)(F)C(F)(F)C(F)(F)C(F)(F)C(F)(F)F | Solute carrier organic anion transporter family member 1B1 (SLCO1B1, Homo sapiens, UniProt Q9Y6L6) | substrate | CHO stably expressing | 10 µM |  | linear uptake duration | 1 min |
| N#Cc1ccc([C@H]2CCc3cncn32)c(F)c1 | CYP2B6 | inhibitor |  |  |  | Ki | 10 µM |
| CC1CO1 (centres unmarked) | CYP2E1 | enzyme activity, inhibitor |  | pH 7.4, 37 °C, together with: 4-nitrophenol 50 µM |  | IC50 | 14000 µM |

Repeated from above:
| Compound | target or system | assay | test system | conditions | how to read | endpoint | result |
| --- | --- | --- | --- | --- | --- | --- | --- |
| CC(C)CC(=O)OC[C@H]1O[C@@](C#N)(c2ccc3c(N)ncnn23)[C@H](O)[C@@H]1O | CYP2E1 | metabolic stability | recombinant enzyme | 1 µM |  | intrinsic clearance | < 0.0353 µL/min/pmol |
| CN1CCN(c2cc(-c3ccncc3)c(-c3ccc4ccccc4c3)nn2)CC1 | G-protein coupled bile acid receptor 1 (GPBAR1, Homo sapiens, UniProt Q8TDU6) | agonist, FLIPR |  | 12.5 µM |  | activation | 5.6% |
| CCN(CCO)CCCC(C)Nc1ccnc2cc(Cl)ccc12 (centres unmarked) | SLC22A1 | transport, inhibitor | transiently transfected cells | 100 µM, 10 (unit not given), together with: metformin |  | inhibition | 80.2% |
| C=CC1CO1 (centres unmarked) | CYP2E1 | enzyme activity, inhibitor |  | pH 7.4, 37 °C, together with: 4-nitrophenol 50 µM |  | IC50 | 110 µM |
| CC[C@H](C)[C@@H]1NC(=O)[C@@H]2CCCN2C(=O)[C@H](CC(C)C)NC(=O)[C@H](CC(C)C)NC(=O)CNC(=O)[C@@H](NC(=O)[C@@H](NC(=O)[C@H](CC(=O)O)NC(=O)CNC(=O)[C@@H](NC(=O)[C@H](C)NC(=O)CNC(=O)[C@H](CCCCN)NC(=O)[C@H](CC(C)C)NC(=O)[C@H](CC(C)C)NC(=O)[C@H](CCCCN)NC(=O)CNC(=O)[C@@H](NC(=O)[C@@H](N)CC(C)C)C(C)C)C(C)C)C(C)C)CSSC[C@@H](C(=O)O)NC1=O |  | RNA-seq, refers to: Gch1 | mouse, traumatic brain injury model, frontal cortex and hippocampus | dose not given | reference: TBI alone | log2 fold change | -1.53 |
